{"data": "Measurements of several laboratories", "note": "Each numbered part is a random draw from the data of one study; scales do not carry over between parts. Values joined by “and” are separate records of one study, mostly repeats; a detail may differ.", "UniProt P42336, sequence (whole entry, unmodified, looked up)": "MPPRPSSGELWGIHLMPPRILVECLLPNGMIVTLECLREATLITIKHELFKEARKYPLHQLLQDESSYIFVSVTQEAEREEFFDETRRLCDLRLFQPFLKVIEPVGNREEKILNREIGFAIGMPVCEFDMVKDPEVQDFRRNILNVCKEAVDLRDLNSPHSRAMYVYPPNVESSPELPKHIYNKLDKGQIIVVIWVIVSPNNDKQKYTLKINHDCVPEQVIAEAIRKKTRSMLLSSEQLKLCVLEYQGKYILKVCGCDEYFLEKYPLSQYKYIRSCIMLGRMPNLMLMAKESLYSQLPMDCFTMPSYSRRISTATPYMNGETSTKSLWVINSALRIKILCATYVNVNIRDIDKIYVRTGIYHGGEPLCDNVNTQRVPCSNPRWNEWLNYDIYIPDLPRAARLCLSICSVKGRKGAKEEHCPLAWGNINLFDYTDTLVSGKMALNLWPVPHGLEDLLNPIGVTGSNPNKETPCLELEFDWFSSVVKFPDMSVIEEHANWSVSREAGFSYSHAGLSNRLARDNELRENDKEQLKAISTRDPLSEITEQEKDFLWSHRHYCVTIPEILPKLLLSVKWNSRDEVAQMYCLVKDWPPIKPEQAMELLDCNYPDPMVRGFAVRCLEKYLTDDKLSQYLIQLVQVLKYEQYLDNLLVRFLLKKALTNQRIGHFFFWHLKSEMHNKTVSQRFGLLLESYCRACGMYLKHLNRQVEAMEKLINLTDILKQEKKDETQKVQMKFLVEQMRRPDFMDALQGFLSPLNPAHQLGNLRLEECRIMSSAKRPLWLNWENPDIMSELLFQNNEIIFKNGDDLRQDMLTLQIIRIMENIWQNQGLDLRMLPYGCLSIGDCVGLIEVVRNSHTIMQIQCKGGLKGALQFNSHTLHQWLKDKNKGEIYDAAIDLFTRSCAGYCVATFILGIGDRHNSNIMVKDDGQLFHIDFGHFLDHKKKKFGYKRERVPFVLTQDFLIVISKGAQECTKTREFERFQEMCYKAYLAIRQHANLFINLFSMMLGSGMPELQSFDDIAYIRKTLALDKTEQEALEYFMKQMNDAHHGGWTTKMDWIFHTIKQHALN", "UniProt Q99683, sequence (whole entry, looked up)": "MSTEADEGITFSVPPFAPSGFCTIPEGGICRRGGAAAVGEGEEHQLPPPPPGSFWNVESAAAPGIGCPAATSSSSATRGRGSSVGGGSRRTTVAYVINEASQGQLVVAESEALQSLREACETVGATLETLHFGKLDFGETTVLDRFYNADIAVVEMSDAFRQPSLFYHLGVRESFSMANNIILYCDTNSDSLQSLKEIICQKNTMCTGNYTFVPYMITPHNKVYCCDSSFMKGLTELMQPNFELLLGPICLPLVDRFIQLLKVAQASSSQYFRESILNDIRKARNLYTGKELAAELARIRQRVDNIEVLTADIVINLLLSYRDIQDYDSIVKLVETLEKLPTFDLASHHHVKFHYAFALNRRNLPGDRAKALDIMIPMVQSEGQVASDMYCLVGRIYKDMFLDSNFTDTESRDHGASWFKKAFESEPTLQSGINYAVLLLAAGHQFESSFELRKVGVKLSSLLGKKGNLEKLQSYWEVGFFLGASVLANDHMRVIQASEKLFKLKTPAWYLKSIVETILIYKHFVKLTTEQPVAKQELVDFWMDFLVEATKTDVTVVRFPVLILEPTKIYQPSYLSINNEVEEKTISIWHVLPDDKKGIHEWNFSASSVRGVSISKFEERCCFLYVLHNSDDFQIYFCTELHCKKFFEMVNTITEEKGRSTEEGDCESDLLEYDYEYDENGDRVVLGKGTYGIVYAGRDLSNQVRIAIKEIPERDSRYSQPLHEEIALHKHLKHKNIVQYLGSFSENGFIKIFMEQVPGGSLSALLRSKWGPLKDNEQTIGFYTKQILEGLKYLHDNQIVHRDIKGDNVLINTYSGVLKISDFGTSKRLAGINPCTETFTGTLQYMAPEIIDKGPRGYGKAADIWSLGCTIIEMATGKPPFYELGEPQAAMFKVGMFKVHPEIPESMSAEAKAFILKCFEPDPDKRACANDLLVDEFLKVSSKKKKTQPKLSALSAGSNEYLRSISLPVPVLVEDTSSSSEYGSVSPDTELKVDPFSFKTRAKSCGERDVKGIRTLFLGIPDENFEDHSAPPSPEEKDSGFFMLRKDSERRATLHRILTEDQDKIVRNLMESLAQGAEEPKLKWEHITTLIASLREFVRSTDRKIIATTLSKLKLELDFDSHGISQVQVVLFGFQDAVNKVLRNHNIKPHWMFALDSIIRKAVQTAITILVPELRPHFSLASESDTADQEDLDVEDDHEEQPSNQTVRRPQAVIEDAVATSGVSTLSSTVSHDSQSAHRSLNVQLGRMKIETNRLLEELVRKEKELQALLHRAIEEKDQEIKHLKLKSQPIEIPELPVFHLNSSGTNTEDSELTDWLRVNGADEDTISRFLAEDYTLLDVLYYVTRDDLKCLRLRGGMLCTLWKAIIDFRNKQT", "UniProt Q8TDX7, sequence (whole entry, looked up)": "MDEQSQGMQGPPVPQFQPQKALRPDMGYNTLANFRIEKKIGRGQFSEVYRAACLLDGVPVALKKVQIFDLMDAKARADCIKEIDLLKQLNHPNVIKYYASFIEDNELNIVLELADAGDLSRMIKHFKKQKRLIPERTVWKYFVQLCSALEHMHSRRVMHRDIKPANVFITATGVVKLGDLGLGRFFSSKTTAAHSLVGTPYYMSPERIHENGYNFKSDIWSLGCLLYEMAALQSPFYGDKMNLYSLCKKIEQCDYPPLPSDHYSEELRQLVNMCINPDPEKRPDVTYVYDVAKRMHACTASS", "UniProt P07333, sequence (whole entry, looked up)": "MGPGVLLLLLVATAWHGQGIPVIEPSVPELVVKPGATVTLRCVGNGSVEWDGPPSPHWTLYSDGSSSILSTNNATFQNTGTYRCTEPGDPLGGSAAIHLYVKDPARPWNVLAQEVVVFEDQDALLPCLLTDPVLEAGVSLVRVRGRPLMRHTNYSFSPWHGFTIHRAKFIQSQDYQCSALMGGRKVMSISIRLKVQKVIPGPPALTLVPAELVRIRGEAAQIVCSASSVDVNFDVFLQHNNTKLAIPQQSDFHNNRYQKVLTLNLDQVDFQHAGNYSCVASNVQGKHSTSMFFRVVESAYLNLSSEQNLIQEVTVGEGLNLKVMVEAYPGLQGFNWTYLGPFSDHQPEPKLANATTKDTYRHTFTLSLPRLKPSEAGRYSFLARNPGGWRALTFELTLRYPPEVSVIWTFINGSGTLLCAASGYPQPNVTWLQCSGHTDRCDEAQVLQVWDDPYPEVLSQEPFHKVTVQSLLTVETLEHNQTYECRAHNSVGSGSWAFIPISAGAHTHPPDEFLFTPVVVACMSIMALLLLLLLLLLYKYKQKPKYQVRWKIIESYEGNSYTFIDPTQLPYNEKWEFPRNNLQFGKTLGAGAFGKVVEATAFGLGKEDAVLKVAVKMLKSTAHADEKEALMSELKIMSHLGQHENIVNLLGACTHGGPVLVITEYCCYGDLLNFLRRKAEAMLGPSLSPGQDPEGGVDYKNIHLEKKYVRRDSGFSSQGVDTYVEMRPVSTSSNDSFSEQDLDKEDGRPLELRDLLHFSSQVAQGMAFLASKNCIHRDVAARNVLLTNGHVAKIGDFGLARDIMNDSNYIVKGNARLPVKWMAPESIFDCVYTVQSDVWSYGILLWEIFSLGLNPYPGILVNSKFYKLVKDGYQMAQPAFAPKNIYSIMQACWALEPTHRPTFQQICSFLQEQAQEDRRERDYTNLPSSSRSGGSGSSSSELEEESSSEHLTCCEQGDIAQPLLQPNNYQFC", "UniProt P45983, sequence (whole entry, looked up)": "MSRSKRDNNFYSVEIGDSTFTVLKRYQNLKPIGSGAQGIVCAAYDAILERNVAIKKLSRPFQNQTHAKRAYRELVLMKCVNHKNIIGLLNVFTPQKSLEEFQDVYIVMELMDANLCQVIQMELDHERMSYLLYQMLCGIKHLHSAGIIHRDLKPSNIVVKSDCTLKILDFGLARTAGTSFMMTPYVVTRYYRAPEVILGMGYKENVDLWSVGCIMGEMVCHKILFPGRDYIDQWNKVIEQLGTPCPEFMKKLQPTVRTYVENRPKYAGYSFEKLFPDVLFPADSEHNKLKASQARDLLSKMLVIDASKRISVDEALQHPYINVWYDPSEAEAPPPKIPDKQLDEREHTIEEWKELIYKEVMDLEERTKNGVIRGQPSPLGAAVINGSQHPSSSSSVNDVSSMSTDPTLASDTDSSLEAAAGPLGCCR", "UniProt Q92918, sequence (whole entry, looked up)": "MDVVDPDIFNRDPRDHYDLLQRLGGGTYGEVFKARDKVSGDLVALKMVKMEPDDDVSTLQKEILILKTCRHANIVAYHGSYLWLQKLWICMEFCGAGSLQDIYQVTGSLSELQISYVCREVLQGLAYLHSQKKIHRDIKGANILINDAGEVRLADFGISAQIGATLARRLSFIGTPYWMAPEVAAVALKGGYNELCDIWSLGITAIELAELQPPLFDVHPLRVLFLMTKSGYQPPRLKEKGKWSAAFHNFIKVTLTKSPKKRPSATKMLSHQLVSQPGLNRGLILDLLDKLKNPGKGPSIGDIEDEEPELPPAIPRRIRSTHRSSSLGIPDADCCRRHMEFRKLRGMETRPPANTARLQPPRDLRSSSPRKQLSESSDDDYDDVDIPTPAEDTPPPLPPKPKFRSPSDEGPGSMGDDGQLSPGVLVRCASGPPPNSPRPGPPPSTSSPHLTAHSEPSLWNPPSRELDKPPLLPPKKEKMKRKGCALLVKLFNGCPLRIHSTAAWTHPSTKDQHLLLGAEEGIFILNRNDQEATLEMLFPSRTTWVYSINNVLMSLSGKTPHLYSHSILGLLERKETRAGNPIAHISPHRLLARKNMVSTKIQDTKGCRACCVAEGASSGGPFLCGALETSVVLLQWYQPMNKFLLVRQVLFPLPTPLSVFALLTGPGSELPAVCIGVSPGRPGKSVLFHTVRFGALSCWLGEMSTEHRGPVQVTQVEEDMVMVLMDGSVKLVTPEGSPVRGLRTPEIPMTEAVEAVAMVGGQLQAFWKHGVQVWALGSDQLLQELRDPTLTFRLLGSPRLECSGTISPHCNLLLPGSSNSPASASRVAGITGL"}
{"data": "Block 1", "SMILES": "CN([C@@H]1CCc2c(CC(=O)O)c3ccccc3n2C1)S(=O)(=O)c1ccc(F)cc1", "technique": "competition with immobilised ligand", "concentration": "1 µM"}
{"target": "MAPK6 (Homo sapiens, UniProt Q16659)", "test": "cell-free assay", "remaining binding [%]": 100}
{"target": "BMPR1A (Homo sapiens, UniProt P36894)", "test": "binding", "remaining binding [%]": 100}
{"target": "GSK3A (Homo sapiens, UniProt P49840)", "test": "cell-free assay", "remaining binding [%]": 90}
{"target": "STK17B (Homo sapiens, UniProt O94768)", "test": "cell-free assay", "remaining binding [%]": 85}
{"target": "PIP5K1A (Homo sapiens, UniProt Q99755)", "test": "cell-free assay", "remaining binding [%]": 100}
{"target": "MAP4K1 (Homo sapiens, UniProt Q92918)", "test": "cell-free assay", "remaining binding [%]": 100}
{"target": "PRKACA (Homo sapiens, UniProt P17612)", "test": "cell-free assay", "remaining binding [%]": 100}
{"target": "EPHB6 (Homo sapiens, UniProt O15197)", "test": "cell-free assay", "remaining binding [%]": 83}
{"target": "MAP3K5 (Homo sapiens, UniProt Q99683)", "test": "cell-free assay", "remaining binding [%]": 100}
{"target": "MATK (Homo sapiens, UniProt P42679)", "test": "cell-free assay", "remaining binding [%]": 100}
{"target": "ACVR2B (Homo sapiens, UniProt Q13705)", "test": "cell-free assay", "remaining binding [%]": 98}
{"target": "Ribosomal protein S6 kinase alpha-5, C-terminal kinase domain (RPS6KA5, Homo sapiens, UniProt O75582)", "test": "cell-free assay", "remaining binding [%]": 79}
{"target": "CSF1R (Homo sapiens, UniProt P07333)", "test": "cell-free assay", "remaining binding [%]": 100}
{"target": "SGK1 (Homo sapiens, UniProt O00141)", "test": "cell-free assay", "remaining binding [%]": 100}
{"target": "PAK5 (Homo sapiens, UniProt Q9P286)", "test": "cell-free assay", "remaining binding [%]": 100}
{"target": "PTK2B (Homo sapiens, UniProt Q14289)", "test": "cell-free assay", "remaining binding [%]": 100}
{"target": "PIK3CA (Homo sapiens, UniProt P42336, H1047L)", "test": "cell-free assay", "remaining binding [%]": 100}
{"target": "PIK3CA (Homo sapiens, UniProt P42336, E545K)", "test": "cell-free assay", "remaining binding [%]": 86}
{"target": "EGFR (Homo sapiens, UniProt P00533, G719C)", "test": "cell-free assay", "remaining binding [%]": 100}
{"target": "FLT3 (Homo sapiens, UniProt P36888, N841I)", "test": "cell-free assay", "remaining binding [%]": 100}
{"data": "Block 2", "Compound": "Cc1nc(Nc2ncc(C(=O)Nc3c(C)cccc3Cl)s2)cc(N2CCN(CCO)CC2)n1", "action": "inhibitor", "concentration": "10 µM"}
{"target": "CSNK1G3 (Homo sapiens, UniProt Q9Y6M4)", "inhibition": "< 50%"}
{"target": "NEK7 (Homo sapiens, UniProt Q8TDX7)", "inhibition": "< 50%"}
{"target": "MELK (Homo sapiens, UniProt Q14680)", "inhibition": "< 50%"}
{"target": "MAPK8 (Homo sapiens, UniProt P45983)", "inhibition": "< 50%"}
{"target": "CDK3 (Homo sapiens, UniProt Q00526)", "inhibition": "< 50%"}
{"data": "Block 3", "cell line": "A-375", "concentration": "100 µM", "time": "36 h"}
{"SMILES": "CC(C)(Oc1ccc(Cl)cc1)C(=O)OCCOC(=O)c1cccnc1", "viability [%]": 95.6}
{"SMILES": "CO/N=C(\\C(=O)N[C@@H]1C(=O)N2C(C(=O)O)=C(C[N+]3(C)CCCC3)CS[C@H]12)c1csc(N)n1", "viability [%]": 116}
{"SMILES": "CN(C)CCC(c1ccc(Cl)cc1)c1ccccn1 (stereo not drawn)", "viability [%]": 106}
{"SMILES": "N[C@H](Cc1ccccc1)C(=O)O", "viability [%]": 118}
{"data": "Block 4", "species": "mouse", "matrix": "microsomes or S9", "concentration": "2 µM", "time": "0.5 h"}
{"SMILES": "COc1ccccc1C(CC(=O)NCCN(C)C)C(C)C (stereo not drawn)", "remaining compound": "0.15%"}
{"SMILES": "Cc1ccc(C(C)C)c(OCC(O)CN2CCN(CCO)CC2)c1 (stereo not drawn)", "remaining compound": "38.2%"}
{"SMILES": "CCOC(C#Cc1cncc(I)c1N)OCC", "remaining compound": "1.44%"}
{"SMILES": "CC1CCN(CCCNc2ncc(-c3cnccn3)c(-c3ccco3)n2)CC1", "remaining compound": "0.732%"}
{"data": "Block 5", "SMILES": "CC(C)n1cnc(-c2ccc(F)cc2)c1-c1ncc(C(=O)Nc2ccc(N3CCN(C)CC3)cc2)[nH]1", "technique": "phase 2a trial", "species": "idiopathic pulmonary fibrosis patients"}
{"conditions": "30 mg once daily, grade 5 emergent event", "patients with bronchitis": "0%"}
{"conditions": "30 mg once daily, grade 1 emergent event", "patients with bronchitis": "0%"}
{"conditions": "60 mg once daily, grade 3 emergent event", "patients with bronchitis": "0%"}
{"data": "Block 6", "cell line": "mouse MPNST tumor cells", "technique": "high-content nuclear imaging", "item": "cell number", "concentration": "10 µM", "time": "12 h", "setting": "mean of 2 replicates", "baseline": "plate mean", "reading": "higher = more cells"}
{"Structure (SMILES)": "CCOC(=O)[C@]12CC1/C(=N\\O)c1ccccc1O2 (stereo partly drawn)", "nuclei count": "-0.0357 z-score"}
{"Structure (SMILES)": "CCOC(=O)CCNc1cc(N2CCc3ccccc3CC2)nc(-c2cccnc2)n1", "nuclei count": "1.75 z-score"}
{"Structure (SMILES)": "CCN(CC)CCCCNc1ncc2cc(-c3cc(OC)cc(OC)c3)c(NC(=O)NC(C)(C)C)nc2n1", "nuclei count": "-4.47 z-score"}
{"Structure (SMILES)": "CCOc1ccccc1OC(c1ccccc1)C1CNCCO1 (stereo not drawn)", "nuclei count": "2.99 z-score and 3.71 z-score"}
{"Structure (SMILES)": "COCC1=C(C(=O)OC(C)OC(=O)OC(C)C)N2C(=O)[C@@H](NC(=O)/C(=N\\OC)c3csc(N)n3)[C@H]2SC1 (stereo partly drawn)", "nuclei count": "0.951 z-score"}
{"Structure (SMILES)": "COC(=O)/C=C/c1cccc(N(Cc2ccc(-c3ccc(N(C)C)cc3)cc2)C(=O)C2CCCCC2)c1", "nuclei count": "2.46 z-score"}
